Experimental data of several laboratories.
Each numbered part is a random draw from the data of one study; scales do not carry over between parts. Changes are numbered by the printed parent chain.

Sample 1 — target: CCNA2, cyclin fold, Cln2 fusion (human); technique: yeast growth competition, sequencing; matrix: yeast; notes: strong parent motif; relative to: not given; direction: higher = stronger binding
Starting sequence: INSM1 docking peptide (human); PKAIRKLHFEDEV
Under “normalised enrichment score”, `E12I` is recorded as 4.95.
`D11A`: “normalised enrichment score” 5.01.
`K2D` — result for “normalised enrichment score”: 2.73.
`A3F` — result for “normalised enrichment score”: 4.28.
`L7M` — result for “normalised enrichment score”: 0.555.
Under “normalised enrichment score”, `A3P` is recorded as 4.08.
`E10Y`: “normalised enrichment score” 4.69.
For `R5V`, “normalised enrichment score” read 1.13.
For `K2N`, “normalised enrichment score” read 4.68.
`K2C` — result for “normalised enrichment score”: 4.85.
`I4A`: “normalised enrichment score” 6.1.
`I4Q` — result for “normalised enrichment score”: 6.49.
For `K6Y`, “normalised enrichment score” read 2.03.
For `H8E`, “normalised enrichment score” read 5.19.
For `K6F`, “normalised enrichment score” read 1.75.
For `K2P`, “normalised enrichment score” read 3.74.

Sample 2 — technique: RNA Bind-n-Seq; molecule type: RNA; matrix: in vitro; tested at: 1 µM; notes: whole 134-nt RNA, ends assumed; added: 150 mM KCl; relative to: input library; direction: higher = stronger binding
Target: Ras GTPase-activating protein-binding protein 1, RRM domain (G3BP1, Homo sapiens, UniProt Q13283)
Chain of UniProt Q13283 (whole entry, looked up): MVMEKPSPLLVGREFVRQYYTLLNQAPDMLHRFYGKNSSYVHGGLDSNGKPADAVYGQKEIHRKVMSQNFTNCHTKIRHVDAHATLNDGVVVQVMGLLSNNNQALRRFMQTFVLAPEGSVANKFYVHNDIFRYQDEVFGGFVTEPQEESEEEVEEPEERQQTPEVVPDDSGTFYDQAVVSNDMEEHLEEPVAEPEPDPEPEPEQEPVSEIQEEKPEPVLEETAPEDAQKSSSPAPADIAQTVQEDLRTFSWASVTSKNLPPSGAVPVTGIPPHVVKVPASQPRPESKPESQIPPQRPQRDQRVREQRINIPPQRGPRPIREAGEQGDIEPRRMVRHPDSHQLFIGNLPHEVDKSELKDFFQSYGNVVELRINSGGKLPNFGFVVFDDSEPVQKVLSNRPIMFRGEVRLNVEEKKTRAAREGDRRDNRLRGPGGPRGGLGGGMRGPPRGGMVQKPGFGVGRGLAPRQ
Constant ends, left off below: GGGAGUUCUACAGUCCGACGAUC … UGGAAUUCUCGGGUGUCAAGG
`UCCUCAAGUCCUGUGCUACACAUCGUAUGUACCGAAUCGGAAAGGUGGAGGAAAGUAUUAUGUUACGCCGUUCGGAUCUGCACUUCCAGC` has a log2 enrichment of -0.233.
`UGGGAGGUGGAUUUUGUUUAUUUUUUUAGCUCAUUUCCAGGGGUGGGAAUUUUUUUUUAAUAAGUGUCAUGAAUAAAGUUGUUUUUGAAA` has a log2 enrichment of 2.18.
The log2 enrichment of `AAGUCCUGUGCUACACAUCGUAUGUACCGAAUCGGGUUUUUGGGAGGGUUUUUGGGAAAGUAUUAUGUUACGCCGUUCGGAUCUGCACUU` is reported as 0.388.
The log2 enrichment of `UAGCUUUAGAGGAGGAUCUGAUGGAUAUGGCAGUGGACGUGGAUUUGGGGAUGGCUAUAAUGGGUAUGGAGGAGGACCUGGAGGUGGCAA` is reported as -0.801.
With `UGGCCCUGGUGGCAUGCGGGGAGGAACAGGUGGCCUCAUGGAUCGUGGUGGUCCCGGUGGAAUGUUCAGAGGUGGCCGUGGUGGAGACAG` the log2 enrichment was 0.714.
`AAGUCCUGUGCUACACAUCGUAUGUACCGAAUCGGUUUUUUUGGUUUUUUUGGAGGAAAGUAUUAUGUUACGCCGUUCGGAUCUGCACUU` gave a log2 enrichment of -0.356.
`CAAGUCCUGUGCUACACAUCGUAUGUACCGAAUCGGCCCGGGCCCGGGGCCCGGGAAAGUAUUAUGUUACGCCGUUCGGAUCUGCACUUC` gave a log2 enrichment of -0.692.
The log2 enrichment of `CAAGUCCUGUGCUACACAUCGUAUGUACCGAAUCGGGAAAGGGUGGGAAAAAGGGAAAGUAUUAUGUUACGCCGUUCGGAUCUGCACUUC` is reported as 0.846.
With `UGGCCCUGGUGGCAUGCGGGGAGGAAGAGGUGGCCUCAUGGAUCGUGGUGGUCCCGGUGGAAUGUUCAGAGGUGCCCGUGGUGGAGACAG` the log2 enrichment was 1.37.
For `AAGUCCUGUGCUACACAUCGUAUGUACCGAAUCAAAUUUAAAUUUUUAAACCCAAAAAAGUAUUAUGUUACGCCGUUCGGAUCUGCACUU`, the log2 enrichment was -1.06.
The log2 enrichment of `CUCAAGUCCUGUGCUACACAUCGUAUGUACCGAAUCGGGUGGGUGGGAAAGGGAAAGUAUUAUGUUACGCCGUUCGGAUCUGCACUUCCA` is reported as 0.811.
The log2 enrichment of `UCAAGUCCUGUGCUACACAUCGUAUGUACCGAAUCGGGUUUGGGUUUGGGAGGGAAAGUAUUAUGUUACGCCGUUCGGAUCUGCACUUCC` is reported as 0.602.
The log2 enrichment of `UCAAGUCCUGUGCUACACAUCGUAUGUACCGAAUCGGGUGGGUUUUUGGGAGGGAAAGUAUUAUGUUACGCCGUUCGGAUCUGCACUUCC` is reported as 0.517.
The log2 enrichment of `CAAAAACAACACGCACCCACACAGACACAGAGGGAAGGGGUUGGGAUGGGGACAGGGUGCACAGCAGGGCGGGGUAGGACCCCAGCCCCU` is reported as -0.249.

Sample 3 — technique: DHFR PCA, deep sequencing; matrix: yeast; added: (+)-ABA 0.11 µM; relative to: wild-type fitted maximum; direction: higher = stronger binding
Target: ABI1, truncated, D143A, DHFR fusion (Arabidopsis thaliana)
Notes: methotrexate growth selection, single substitutions
Starting sequence: PYL1, truncated, DHFR fusion (Arabidopsis thaliana); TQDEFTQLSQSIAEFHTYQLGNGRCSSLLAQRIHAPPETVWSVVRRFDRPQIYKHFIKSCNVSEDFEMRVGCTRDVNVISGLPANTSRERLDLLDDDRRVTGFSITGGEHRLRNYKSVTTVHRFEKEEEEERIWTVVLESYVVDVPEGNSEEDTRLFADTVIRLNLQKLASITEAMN; partner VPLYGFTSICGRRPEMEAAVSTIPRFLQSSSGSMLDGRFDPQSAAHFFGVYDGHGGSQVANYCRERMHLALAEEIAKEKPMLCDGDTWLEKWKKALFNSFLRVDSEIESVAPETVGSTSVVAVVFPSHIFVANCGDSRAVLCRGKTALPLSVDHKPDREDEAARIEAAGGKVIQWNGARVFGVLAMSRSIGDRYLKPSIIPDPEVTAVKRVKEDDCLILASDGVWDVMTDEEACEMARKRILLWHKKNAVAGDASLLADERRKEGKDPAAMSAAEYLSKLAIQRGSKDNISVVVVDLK
For `R113K`, “relative binding score” read 50.5%.
For `C25P`, “relative binding score” read -3.58%.
Under “relative binding score”, `W41H` is recorded as -9.14%.
Under “relative binding score”, `R123T` is recorded as 29.5%.
Under “relative binding score”, `I33R` is recorded as 1.22%.
`P146T` — result for “relative binding score”: 13.6%.
For `V136Y`, “relative binding score” read 3.18%.
Under “relative binding score”, `I172N` is recorded as -1.26%.
For `R132W`, “relative binding score” read 1.82%.
`L82Y`: “relative binding score” 49.2%.
`V142C`: “relative binding score” 34.6%.
`V121F` — result for “relative binding score”: -3.94%.
Under “relative binding score”, `W134S` is recorded as 43.7%.
`F47S`: “relative binding score” -2.37%.
`S171E`: “relative binding score” 54.5%.

Sample 4 — technique: Sort-seq; refers to: YFP reporter; matrix: E. coli; notes: PhoQ-PhoP variant library; added: 10 µM Mg2+; relative to: high Mg2+ state; direction: higher = stronger signaling
Molecule: PhoQ, residues 284 288 289 292 302 303 SACGEM
It gave 7.2 for fold induction (PhoP, residues 12 14 15 18 19 ICWRQ (Escherichia coli, UniProt P23836)).
It gave 6.26 for fold induction (PhoP, residues 12 14 15 18 19 VHTVL (Escherichia coli, UniProt P23836)).
It gave 0.948 for fold induction (PhoP, residues 12 14 15 18 19 TQCLL (Escherichia coli, UniProt P23836)).

Some of these lines once more (sample 1):
For `K2N`, “normalised enrichment score” read 4.68.
`K2C` — result for “normalised enrichment score”: 4.85.
